Measured values collected from several papers.
Parts stem from different laboratories: compare values within a part only.

Series 1
Target: Ras GTPase-activating protein-binding protein 1, RRM domain (G3BP1, Homo sapiens, UniProt Q13283)
Chain of UniProt Q13283 (whole entry, looked up): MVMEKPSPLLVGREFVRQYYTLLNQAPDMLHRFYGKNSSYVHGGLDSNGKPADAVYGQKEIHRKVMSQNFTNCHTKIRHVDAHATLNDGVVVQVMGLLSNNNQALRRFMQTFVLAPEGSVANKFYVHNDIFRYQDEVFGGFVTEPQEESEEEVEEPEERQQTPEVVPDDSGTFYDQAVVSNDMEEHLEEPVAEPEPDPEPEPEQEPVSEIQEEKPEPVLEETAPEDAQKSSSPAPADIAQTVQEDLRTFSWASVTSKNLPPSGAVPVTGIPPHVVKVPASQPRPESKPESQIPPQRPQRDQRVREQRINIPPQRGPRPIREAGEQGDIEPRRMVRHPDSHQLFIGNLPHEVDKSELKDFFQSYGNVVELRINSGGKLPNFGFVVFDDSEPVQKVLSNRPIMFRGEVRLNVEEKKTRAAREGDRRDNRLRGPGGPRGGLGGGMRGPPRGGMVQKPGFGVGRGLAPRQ
Technique: RNA Bind-n-Seq
Molecule type: RNA
Matrix: in vitro
Concentration: 1 µM
Setting: whole 134-nt RNA, ends assumed
Added: 150 mM KCl
Reference: input library
Reading: higher = stronger binding
Quantity: log2 enrichment
Shared flanks, not repeated: GGGAGUUCUACAGUCCGACGAUC … UGGAAUUCUCGGGUGUCAAGG
AAGUCCUGUGCUACACAUCGUAUGUACCGAAUCGGGUUUUGGGUUUUGGGUUUUGGAAAGUAUUAUGUUACGCCGUUCGGAUCUGCACUU: -0.237
CAAGUCCUGUGCUACACAUCGUAUGUACCGAAUCGGGAAAGGGAAAAAGGGUGGGAAAGUAUUAUGUUACGCCGUUCGGAUCUGCACUUC: 0.888
ACCAUGUAGGUGGGCAUCUUUGGGAAGUGGGGCAAGGGGGGGAUAGGGAGGGGGGUAACACUUUGGGAACAGGUGGUCCCAGGUCGUUUC: -0.259
UGGGAGGUGGAUUUUGUUUAUUUUUUUAGCUCAUUUCCAGGGGUGGGAAUUUUUUUUUACUAUGUGUCAUGAAUAAAGUUGUUUUUGAAA: 1.94
CACAGACAACACGCACCCACACAGACACAGAGGCAAGGGGUUGGGAUGGGGACAGGGUGCACAGCAGGGCGGGGUAGGACCCCAGCCCCU: 0.0482

Series 2
Target: Replicase polyprotein 1ab, nsp13 helicase (rep, Severe acute respiratory syndrome coronavirus 2, UniProt P0DTD1)
Action: inhibitor
Concentration: 20 µM
Quantity: inhibition
CC(=O)Oc1ccccc1C(=O)O: 4.11%
O=C(O)c1ccc(-c2c[nH]c3ncc(-c4ccccc4)cc23)cc1C1CCCC1: 7.84%
Nc1c(Br)cc(Br)cc1CN[C@H]1CC[C@H](O)CC1: 3.22%
Cc1nccc2[nH]c(=O)ccc12: 1.5%
N[C@@H]1CONC1=O: 0.81%
CO[C@@H]1[C@H](N(C)C(=O)c2ccccc2)C[C@H]2O[C@]1(C)n1c3ccccc3c3c4c(c5c6ccccc6n2c5c31)C(=O)NC4: 2.55%
CC[n+]1c(-c2ccccc2)c2cc(N)ccc2c2ccc(N)cc21: 59.5%
C[C@H]1O[C@@H](O[C@H]2CC[C@@]3(C)[C@H](CC[C@@H]4[C@@H]3C[C@@H](O)[C@]3(C)[C@@H](C5=CC(=O)OC5)CC[C@]43O)C2)C[C@H](O)[C@@H]1O[C@H]1C[C@H](O)[C@H](O[C@H]2C[C@H](O)[C@H](O[C@@H]3O[C@H](CO)[C@@H](O)[C@H](O)[C@H]3O)[C@@H](C)O2)[C@@H](C)O1: 0.76%
Cc1cc(/C=c2/sc3nc4ccccc4n3c2=O)c(C)n1-c1ccccc1: 7.65%
C=CC(=O)Nc1cc(Nc2nccc(-c3c[nH]c4ccccc34)n2)c(OC)cc1N(C)CCN(C)C: 9.92%
CN[C@@H]1[C@@H](O[C@H]2O[C@H](CO)[C@@H](N)[C@H](O)[C@H]2O)O[C@H]2C[C@@H](N)[C@@H](O[C@H]3[C@H](O)[C@@H](O)[C@H](N)C[C@@H]3N)O[C@@H]2[C@@H]1O: 13.1%
CCOC(=O)Nc1ccc2c(c1)N(C(=O)CCN(CC)CC)c1ccccc1S2: 4.62%
CCCOc1ccc2[nH]c(NC(=O)OC)nc2c1: 6.46%

Series 3
Target: Replicase polyprotein 1ab, main protease (rep, Severe acute respiratory syndrome coronavirus 2, UniProt P0DTD1)
Observed: enzyme activity
Action: inhibitor
Concentration: 20 µM
Setting: hit confirmation
Quantity: inhibition
O=C1c2cccc(O)c2C(=O)c2c(O)cc(CO)cc21: 49.2%
CCn1c(-c2ccc(Cl)cc2)n[nH]c1=O: 68.9%
S=C=NCc1ccccc1: 76.3%
C[C@H](NC(=O)/C(C#N)=C/c1cccc(Br)n1)c1ccccc1: 92.3%

Series 4
Cell line: HEK-293T/ACE2
Concentration: concentration not given
Time: 16 (unit not given)
Reference: vehicle
Quantity: viability
OC[C@@H](O)[C@@H](O)[C@H](O)[C@@H](O)CO: 102%
CC(=O)OCC[N+](C)(C)C: 97.6%
O=NN(CCCl)C(=O)NC1CCCCC1: 100%
CC(=O)OCC(=O)[C@@]1(O)CC[C@H]2[C@@H]3CCC4=CC(=O)CC[C@]4(C)[C@H]3C(=O)C[C@@]21C: 104%

Excerpt of the above (series 3):
CCn1c(-c2ccc(Cl)cc2)n[nH]c1=O: 68.9%
S=C=NCc1ccccc1: 76.3%
